Results gathered from unrelated publications.
Compare with care: the assays were run in different laboratories.

SMILES | organism | assay | system | setting | how to read | MIC
CC1CCN(Cc2cc(N(C)C)c3c(c2O)C(=O)C2=C(O)[C@]4(O)C(=O)C(C(N)=O)=C(O)[C@@H](N(C)C)[C@@H]4C[C@@H]2C3)CC1 | Enterococcus faecium | – | 494, Tet M and Tet L | – | – | 0.25 µg/mL
COc1ccccc1C(=O)O[C@H]1[C@H](C)[C@H](O)[C@H](C)[C@@H](O)[C@@H](C)/C=C/C=C(/C)C(=O)NC2=C3NC4(CCN(CC(C)C)CC4)N=C3c3c(c(O)c(C)c4c3C(=O)[C@@](C)(O/C=C/[C@H](OC)[C@H]1C)O4)C2=O | Mycobacteroides abscessus | – | ATCC 19977 wild type | 90% growth inhibition | – | 0.03 µM
CC(C)C[C@H](NC(=O)[C@H](CC(N)=O)NC(=O)[C@H](CCCNC(=N)N)NC(=O)[C@@H](CC(C)C)NC(=O)[C@H](Cc1ccccc1)NC(=O)[C@H](CC(=O)O)NC(=O)[C@H](CCCCN)NC(=O)[C@@H](CC(C)C)NC(=O)[C@H](CCCNC(=N)N)NC(=O)[C@H](CCC(N)=O)NC(=O)[C@@H](NC(=O)[C@@H](CC(C)C)NC(=O)[C@H](CCCNC(=N)N)NC(=O)[C@H](CCCCN)NC(=O)[C@H](Cc1ccccc1)NC(=O)CN)C(C)C)C(=O)N[C@H](C(N)=O)C(C)C | Staphylococcus aureus, Enterococcus faecium, Klebsiella pneumoniae, Pseudomonas aeruginosa | – | – | – | no inhibition up to value | ≥ 100 µM
CNC(CC(C)C)C(=O)NC1C(=O)NC(CC(N)=O)C(=O)NC2C(=O)NC3C(=O)NC(C(=O)NC(C(=O)NCCCNC(=N)N)c4cc(O)cc(O)c4-c4cc3ccc4O)C(O)c3ccc(c(Cl)c3)Oc3cc2cc(c3OC2OC(CO)C(O)C(O)C2OC2CC(C)(N)C(O)C(C)O2)Oc2ccc(cc2Cl)C1O (stereo not drawn) | Enterococcus faecium | – | ATCC BAA-2317 VanA | added: +NaH2PO4 100 µg/mL | – | 4 µg/mL
CCCCCCCCCCCCCCCCCCCCCCSCC1OC(OC2C(N)CC(N)C(OC3OC(CN)C(O)CC3N)C2O)C(O)C(N)C1O (stereo not drawn) | Streptococcus mutans | – | UA159 | – | – | > 150 µg/mL
CC[C@@H](C)[C@@H](NC(=O)[C@@H](C)NC(=O)[C@@H](CCCCN)NC(=O)[C@@H](CC(C)C)NC(=O)[C@@H](CC(C)C)NC(=O)[C@H](NC(=O)[C@@H](CCCCN)NC(=O)[C@@H](CC(C)C)NC(=O)[C@@H](CCCCN)NC(=O)[C@@H](CCCCN)NC(=O)[C@@H](CCCCN)NC(=O)[C@@H](CCCCN)NC(=O)[C@@H](C)NC(=O)[C@@H](CCCCN)NC(=O)[C@@H](CO)NC(=O)[C@@H](Cc1ccccc1)NC(=O)[C@H](NC(=O)[C@@H](CCCCN)NC(=O)[C@@H](CC(C)C)NC(=O)[C@@H](Cc1ccccc1)NC(=O)[C@@H](CO)NC(=O)[C@@H](CCCCN)NC(=O)[C@@H](Cc1c[nH]c2ccccc12)NC(=O)[C@@H](CCCCN)NC(C)=O)[C@H](C)O)[C@H](C)O)C(=O)N[C@H](CO)C(=O)N[C@H](CCCCN)C(N)=O | Acinetobacter baumannii | – | 899, Mueller-Hinton broth | 24 h, 37 °C | – | 0.6 µM
CN(C)c1cc(CNC2CCCCC2)c(O)c2c1C[C@H]1C[C@H]3[C@H](N(C)C)C(O)=C(C(N)=O)C(=O)[C@@]3(O)C(O)=C1C2=O | Enterococcus faecium | – | 494, Tet M and Tet L | – | – | 1 µg/mL
COc1ccc2c(c1CC=C(C)C)O[C@H]1c3cc(CC=C(C)C)c(O)cc3OC[C@@H]21 | Streptococcus pyogenes | – | ATCC 19615 | – | – | 128 µg/mL
N#Cc1ccc(-c2c[nH]c(CNC(=O)Nc3ncc(Sc4ccccn4)s3)n2)cc1 | Streptococcus pyogenes | broth microdilution | ATCC 19615 | added: verapamil 50 µg/mL | – | 0.125 µM
CNC(CC(C)C)C(=O)NC1C(=O)NC(CC(N)=O)C(=O)NC2C(=O)NC3C(=O)NC(C(=O)NC(C(=O)NCCCNC(=N)N)c4cc(O)cc(O)c4-c4cc3ccc4O)C(O)c3ccc(c(Cl)c3)Oc3cc2cc(c3OC2OC(CO)C(O)C(O)C2OC2CC(C)(NCc3ccc(-c4ccc(Cl)cc4)cc3)C(O)C(C)O2)Oc2ccc(cc2Cl)C1O (stereo not drawn) | Enterococcus faecium | – | ATCC BAA-2317 VanA | added: +POPE 100 µg/mL | – | 0.3 µg/mL
CC(=O)N[C@H](CCCCN)C(=O)N[C@H](CC(C)C)C(=O)N[C@H](CCCCN)C(=O)N[C@H](CO)C(=O)N[C@H](CC(C)C)C(=O)N[C@H](CC(C)C)C(=O)N[C@H](CCCCN)C(=O)N[C@@H](C(=O)N[C@H](CC(C)C)C(=O)N[C@H](CO)C(=O)N[C@H](CCCCN)C(=O)N[C@H](C)C(=O)N[C@H](CCCCN)C(=O)N[C@H](CCCCN)C(=O)N[C@H](CCCCN)C(=O)N[C@H](CCCCN)C(=O)N[C@H](CC(C)C)C(=O)N[C@H](CCCCN)C(=O)N[C@@H](C(=O)N[C@H](CC(C)C)C(=O)N[C@H](CC(C)C)C(=O)N[C@H](CCCCN)C(=O)N[C@H](C)C(=O)N[C@H](CC(C)C)C(=O)N[C@H](CO)C(=O)N[C@H](CCCCN)C(N)=O)[C@H](C)O)[C@H](C)O | Acinetobacter baumannii | – | 821, Mueller-Hinton broth | 24 h, 37 °C | – | 0.3 µM
CO[C@H]1/C=C/O[C@@]2(C)Oc3c(C)c(O)c4c(c3C2=O)C2=NC3(CCN(CC(C)C)CC3)NC2=C(NC(=O)/C(C)=C\C=C\[C@H](C)[C@H](O)[C@@H](C)[C@@H](O)[C@@H](C)[C@H](OC(=O)c2ccc(C)cc2)[C@@H]1C)C4=O | Mycobacteroides abscessus | – | ATCC 19977 wild type | 90% growth inhibition | – | 0.2 µM
CC(C)=CCc1c(O)ccc2c1O[C@H]1c3cc4c(cc3OC[C@@H]21)OC(C)(C)C=C4 | Streptococcus pyogenes | – | ATCC 19615 | – | – | inactive
CN[C@@H]1[C@H](O)[C@H](NC)[C@H]2O[C@]3(O)[C@H](O[C@@H]2[C@H]1O)O[C@H](C)C[C@]3(O)CNCCc1nccs1 | Mycobacteroides abscessus | microbial growth | ATCC19977 | 5 days | – | > 200 µg/mL
O=C1OCC(O)N1/N=C/c1ccc([N+](=O)[O-])o1 (stereo not drawn) | Helicobacter pylori | microbial growth, broth dilution | SS1 | 48 h | – | < 0.0976 µg/mL
CCC(C)C(=O)OC1C(C)C(OC)C=COC2(C)Oc3c(C)c(O)c4c(c3C2=O)C2=NC3(CCN(CC(C)C)CC3)NC2=C(NC(=O)C(C)=CC=CC(C)C(O)C(C)C(O)C1C)C4=O (mixture of isomers) | Mycobacteroides abscessus | – | ATCC 19977 wild type | 90% growth inhibition | – | 1.1 µM
CC(C)c1ccc(Cn2ccc([C@H](C)[C@](O)(Cn3cnnn3)c3ccc(F)cc3F)n2)cc1 | Pichia kudriavzevii | CLSI broth microdilution | 4946 | 24 h | – | < 0.008 µg/mL
CN[C@@H]1[C@H](O)[C@H](NC)[C@H]2O[C@]3(O)[C@H](O[C@@H]2[C@H]1O)O[C@H](C)C[C@@]3(O)CNCCc1ccc(F)cc1 | Streptococcus | – | – | – | as low as | 1.6 µg/mL

Excerpt of the above:
SMILES | organism | assay | system | setting | how to read | MIC
CC(=O)N[C@H](CCCCN)C(=O)N[C@H](CC(C)C)C(=O)N[C@H](CCCCN)C(=O)N[C@H](CO)C(=O)N[C@H](CC(C)C)C(=O)N[C@H](CC(C)C)C(=O)N[C@H](CCCCN)C(=O)N[C@@H](C(=O)N[C@H](CC(C)C)C(=O)N[C@H](CO)C(=O)N[C@H](CCCCN)C(=O)N[C@H](C)C(=O)N[C@H](CCCCN)C(=O)N[C@H](CCCCN)C(=O)N[C@H](CCCCN)C(=O)N[C@H](CCCCN)C(=O)N[C@H](CC(C)C)C(=O)N[C@H](CCCCN)C(=O)N[C@@H](C(=O)N[C@H](CC(C)C)C(=O)N[C@H](CC(C)C)C(=O)N[C@H](CCCCN)C(=O)N[C@H](C)C(=O)N[C@H](CC(C)C)C(=O)N[C@H](CO)C(=O)N[C@H](CCCCN)C(N)=O)[C@H](C)O)[C@H](C)O | Acinetobacter baumannii | – | 821, Mueller-Hinton broth | 24 h, 37 °C | – | 0.3 µM
CO[C@H]1/C=C/O[C@@]2(C)Oc3c(C)c(O)c4c(c3C2=O)C2=NC3(CCN(CC(C)C)CC3)NC2=C(NC(=O)/C(C)=C\C=C\[C@H](C)[C@H](O)[C@@H](C)[C@@H](O)[C@@H](C)[C@H](OC(=O)c2ccc(C)cc2)[C@@H]1C)C4=O | Mycobacteroides abscessus | – | ATCC 19977 wild type | 90% growth inhibition | – | 0.2 µM
